Published values gathered from unrelated publications.
Each numbered part is a random draw from the data of one study; scales do not carry over between parts. Substitutions count along the parent as printed.
UniProt P49841, sequence (whole entry, looked up): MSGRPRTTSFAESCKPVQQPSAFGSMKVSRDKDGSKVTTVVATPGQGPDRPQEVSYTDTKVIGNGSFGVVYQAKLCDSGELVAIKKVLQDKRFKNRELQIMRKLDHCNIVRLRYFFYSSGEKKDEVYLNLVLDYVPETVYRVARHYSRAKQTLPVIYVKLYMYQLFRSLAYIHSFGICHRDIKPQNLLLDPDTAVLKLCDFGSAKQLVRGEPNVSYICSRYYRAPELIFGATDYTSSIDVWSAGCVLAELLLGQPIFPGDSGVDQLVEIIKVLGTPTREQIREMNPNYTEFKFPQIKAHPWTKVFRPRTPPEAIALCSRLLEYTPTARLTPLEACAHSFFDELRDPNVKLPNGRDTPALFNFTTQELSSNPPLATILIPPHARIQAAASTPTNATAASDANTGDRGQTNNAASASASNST
UniProt Q9H4B4, sequence (whole entry, looked up): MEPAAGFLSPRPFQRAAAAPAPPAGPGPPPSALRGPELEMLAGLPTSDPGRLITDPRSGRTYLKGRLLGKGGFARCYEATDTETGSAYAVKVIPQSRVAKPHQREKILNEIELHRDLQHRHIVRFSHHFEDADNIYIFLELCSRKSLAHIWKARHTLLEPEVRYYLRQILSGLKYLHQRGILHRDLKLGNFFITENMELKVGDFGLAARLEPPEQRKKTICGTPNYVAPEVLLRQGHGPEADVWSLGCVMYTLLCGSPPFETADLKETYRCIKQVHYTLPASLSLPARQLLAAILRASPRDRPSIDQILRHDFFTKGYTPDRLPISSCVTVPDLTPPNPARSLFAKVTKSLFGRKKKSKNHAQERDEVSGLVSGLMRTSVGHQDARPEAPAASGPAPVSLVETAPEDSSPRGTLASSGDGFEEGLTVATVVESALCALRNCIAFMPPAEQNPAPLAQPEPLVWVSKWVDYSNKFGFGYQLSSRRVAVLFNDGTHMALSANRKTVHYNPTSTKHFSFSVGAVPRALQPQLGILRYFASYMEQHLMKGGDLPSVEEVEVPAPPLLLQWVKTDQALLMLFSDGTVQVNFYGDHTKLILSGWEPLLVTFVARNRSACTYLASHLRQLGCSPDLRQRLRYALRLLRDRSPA
UniProt Q13464, sequence (whole entry, looked up): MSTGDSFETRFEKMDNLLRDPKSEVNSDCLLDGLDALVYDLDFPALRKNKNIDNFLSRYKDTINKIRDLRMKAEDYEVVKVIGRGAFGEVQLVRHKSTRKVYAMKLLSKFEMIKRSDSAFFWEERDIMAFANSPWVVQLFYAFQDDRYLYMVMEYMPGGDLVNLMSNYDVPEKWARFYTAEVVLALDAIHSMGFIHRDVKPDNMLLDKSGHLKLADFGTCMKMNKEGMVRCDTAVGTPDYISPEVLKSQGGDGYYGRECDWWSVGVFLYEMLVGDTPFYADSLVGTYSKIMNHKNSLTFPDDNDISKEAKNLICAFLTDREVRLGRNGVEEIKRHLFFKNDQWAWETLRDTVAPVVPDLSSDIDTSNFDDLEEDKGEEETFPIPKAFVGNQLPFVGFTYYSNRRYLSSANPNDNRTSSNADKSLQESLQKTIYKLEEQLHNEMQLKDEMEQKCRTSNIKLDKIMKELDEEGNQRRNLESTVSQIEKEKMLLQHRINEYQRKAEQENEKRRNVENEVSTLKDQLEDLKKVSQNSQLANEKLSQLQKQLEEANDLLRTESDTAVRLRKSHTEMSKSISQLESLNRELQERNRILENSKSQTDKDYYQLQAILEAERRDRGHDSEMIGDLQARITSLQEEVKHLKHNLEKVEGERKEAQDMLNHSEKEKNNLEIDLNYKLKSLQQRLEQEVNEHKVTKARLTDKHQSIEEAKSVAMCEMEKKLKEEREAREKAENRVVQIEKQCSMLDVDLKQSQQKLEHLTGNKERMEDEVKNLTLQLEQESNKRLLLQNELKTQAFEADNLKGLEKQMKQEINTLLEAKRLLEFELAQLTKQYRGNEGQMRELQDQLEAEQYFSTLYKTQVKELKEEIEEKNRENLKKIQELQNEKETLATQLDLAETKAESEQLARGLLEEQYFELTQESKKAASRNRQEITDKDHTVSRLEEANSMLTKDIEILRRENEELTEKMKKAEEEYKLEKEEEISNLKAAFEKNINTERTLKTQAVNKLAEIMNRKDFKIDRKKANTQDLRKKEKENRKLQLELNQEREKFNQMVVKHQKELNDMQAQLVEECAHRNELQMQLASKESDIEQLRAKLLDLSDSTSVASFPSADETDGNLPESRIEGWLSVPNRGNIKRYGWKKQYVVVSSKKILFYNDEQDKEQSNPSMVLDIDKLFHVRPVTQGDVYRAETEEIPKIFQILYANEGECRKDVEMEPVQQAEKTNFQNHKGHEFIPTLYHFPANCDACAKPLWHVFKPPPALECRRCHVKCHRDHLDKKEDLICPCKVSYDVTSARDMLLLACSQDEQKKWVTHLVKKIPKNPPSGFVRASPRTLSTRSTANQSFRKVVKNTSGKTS
UniProt P50750, sequence (whole entry, looked up): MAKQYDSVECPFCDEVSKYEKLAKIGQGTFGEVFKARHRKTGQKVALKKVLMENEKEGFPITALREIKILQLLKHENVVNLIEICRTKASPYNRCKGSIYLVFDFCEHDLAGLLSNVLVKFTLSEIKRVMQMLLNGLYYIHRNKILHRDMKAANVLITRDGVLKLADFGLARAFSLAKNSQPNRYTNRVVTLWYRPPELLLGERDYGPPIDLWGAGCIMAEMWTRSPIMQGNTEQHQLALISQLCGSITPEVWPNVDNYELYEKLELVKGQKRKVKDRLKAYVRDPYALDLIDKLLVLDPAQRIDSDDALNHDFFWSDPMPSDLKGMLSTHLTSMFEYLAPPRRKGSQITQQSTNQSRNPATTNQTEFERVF
UniProt Q16832, sequence (whole entry, looked up): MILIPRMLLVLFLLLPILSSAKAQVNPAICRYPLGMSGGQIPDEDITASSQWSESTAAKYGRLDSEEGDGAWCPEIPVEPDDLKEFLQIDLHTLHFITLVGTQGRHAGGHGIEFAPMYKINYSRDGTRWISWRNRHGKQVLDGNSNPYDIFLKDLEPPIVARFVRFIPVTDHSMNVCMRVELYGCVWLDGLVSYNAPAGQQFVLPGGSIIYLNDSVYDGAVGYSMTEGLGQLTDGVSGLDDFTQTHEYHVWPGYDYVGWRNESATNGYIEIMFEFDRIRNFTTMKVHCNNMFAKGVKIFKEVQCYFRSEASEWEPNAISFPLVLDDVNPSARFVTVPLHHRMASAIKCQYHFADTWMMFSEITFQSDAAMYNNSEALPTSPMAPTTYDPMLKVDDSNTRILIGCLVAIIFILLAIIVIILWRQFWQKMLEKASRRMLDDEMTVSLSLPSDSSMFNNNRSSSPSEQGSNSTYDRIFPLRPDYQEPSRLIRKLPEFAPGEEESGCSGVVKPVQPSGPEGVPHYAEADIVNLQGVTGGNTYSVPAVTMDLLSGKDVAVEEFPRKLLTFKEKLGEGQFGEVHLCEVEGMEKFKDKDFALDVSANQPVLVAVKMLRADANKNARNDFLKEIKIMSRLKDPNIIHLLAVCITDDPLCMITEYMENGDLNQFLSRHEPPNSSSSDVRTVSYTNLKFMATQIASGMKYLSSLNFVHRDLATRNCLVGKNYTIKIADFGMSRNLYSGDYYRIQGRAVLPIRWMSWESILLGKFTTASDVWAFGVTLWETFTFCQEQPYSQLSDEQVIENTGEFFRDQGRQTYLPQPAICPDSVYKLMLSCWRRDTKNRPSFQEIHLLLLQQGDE
UniProt P49761, sequence (whole entry, looked up): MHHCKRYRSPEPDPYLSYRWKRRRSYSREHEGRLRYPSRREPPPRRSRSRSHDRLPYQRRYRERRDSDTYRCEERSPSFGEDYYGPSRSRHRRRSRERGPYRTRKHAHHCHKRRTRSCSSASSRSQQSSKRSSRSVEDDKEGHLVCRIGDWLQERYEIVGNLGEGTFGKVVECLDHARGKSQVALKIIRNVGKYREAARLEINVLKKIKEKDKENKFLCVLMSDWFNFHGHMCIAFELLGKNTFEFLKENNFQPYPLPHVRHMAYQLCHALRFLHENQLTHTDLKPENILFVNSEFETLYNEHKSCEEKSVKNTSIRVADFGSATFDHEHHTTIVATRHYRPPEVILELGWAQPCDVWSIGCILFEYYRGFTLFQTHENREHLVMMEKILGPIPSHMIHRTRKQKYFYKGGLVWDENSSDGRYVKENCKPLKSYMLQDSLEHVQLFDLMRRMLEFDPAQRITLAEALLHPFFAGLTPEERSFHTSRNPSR
UniProt P19784, sequence (whole entry, looked up): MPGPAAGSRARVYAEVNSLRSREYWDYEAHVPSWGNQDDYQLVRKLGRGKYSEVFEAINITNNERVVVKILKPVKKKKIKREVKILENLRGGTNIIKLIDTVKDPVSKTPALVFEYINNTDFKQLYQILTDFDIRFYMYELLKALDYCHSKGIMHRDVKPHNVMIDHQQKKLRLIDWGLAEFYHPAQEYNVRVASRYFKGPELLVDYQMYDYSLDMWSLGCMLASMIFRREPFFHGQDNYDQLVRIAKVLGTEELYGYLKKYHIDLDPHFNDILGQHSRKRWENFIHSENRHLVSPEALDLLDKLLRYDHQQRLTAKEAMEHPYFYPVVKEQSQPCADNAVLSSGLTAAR
UniProt Q00537, sequence (whole entry, looked up): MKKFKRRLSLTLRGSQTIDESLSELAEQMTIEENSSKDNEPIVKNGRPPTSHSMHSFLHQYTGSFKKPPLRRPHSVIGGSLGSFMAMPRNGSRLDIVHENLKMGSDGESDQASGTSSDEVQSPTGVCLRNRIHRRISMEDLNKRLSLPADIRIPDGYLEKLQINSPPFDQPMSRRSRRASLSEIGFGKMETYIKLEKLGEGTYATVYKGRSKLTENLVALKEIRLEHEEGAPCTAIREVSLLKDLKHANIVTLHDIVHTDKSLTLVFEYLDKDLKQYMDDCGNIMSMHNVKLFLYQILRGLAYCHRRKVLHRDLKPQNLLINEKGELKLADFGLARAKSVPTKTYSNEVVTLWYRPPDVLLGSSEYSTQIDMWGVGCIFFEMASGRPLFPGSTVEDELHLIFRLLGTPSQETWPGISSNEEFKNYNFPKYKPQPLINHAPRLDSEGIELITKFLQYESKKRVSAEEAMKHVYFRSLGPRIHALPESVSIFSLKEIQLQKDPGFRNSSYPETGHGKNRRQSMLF

Block 1
Target: ABI1, truncated, D143A, DHFR fusion (Arabidopsis thaliana)
Technique: DHFR PCA, deep sequencing
Medium: yeast
Notes: methotrexate growth selection, single substitutions
Added: (+)-ABA 17 µM
Reference: wild-type fitted maximum
Reading: higher = stronger binding
Starting sequence: PYL1, truncated, DHFR fusion (Arabidopsis thaliana); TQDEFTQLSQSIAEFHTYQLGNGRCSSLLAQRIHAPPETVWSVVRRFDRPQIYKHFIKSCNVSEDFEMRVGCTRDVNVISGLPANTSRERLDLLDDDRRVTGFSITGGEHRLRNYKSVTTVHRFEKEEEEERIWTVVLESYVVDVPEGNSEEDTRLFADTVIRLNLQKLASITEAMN; partner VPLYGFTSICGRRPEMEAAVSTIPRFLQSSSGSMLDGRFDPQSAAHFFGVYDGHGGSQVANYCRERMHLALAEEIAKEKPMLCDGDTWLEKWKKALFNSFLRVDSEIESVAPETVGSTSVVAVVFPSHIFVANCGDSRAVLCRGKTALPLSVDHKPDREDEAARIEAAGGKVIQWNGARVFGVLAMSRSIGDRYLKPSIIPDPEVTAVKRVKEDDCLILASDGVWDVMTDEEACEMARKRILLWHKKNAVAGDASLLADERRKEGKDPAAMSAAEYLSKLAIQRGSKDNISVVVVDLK
Change	relative binding score [%]
T39Y	69
R69S	77.2
T101W	-0.162
Y53N	3.32
L29A	28.9
R32D	48.5
S104H	13.8
W134N	77.1

Block 2
Structure (SMILES): Cc1nc(Nc2ncc(C(=O)Nc3c(C)cccc3Cl)s2)cc(N2CCN(CCO)CC2)n1
Read-out: enzyme activity
Mode: inhibitor
Concentration: 0.5 µM
Reference: control
target	remaining activity [%]
Dual specificity protein kinase CLK3 (CLK3, Homo sapiens, UniProt P49761)	95.2
Cyclin-dependent kinase 1, with cyclin A (CDK1, Homo sapiens, UniProt P06493)	96.3
Cyclin-dependent kinase 9, with cyclin K (CDK9, Homo sapiens, UniProt P50750)	104
Rho-associated protein kinase 1 (ROCK1, Homo sapiens, UniProt Q13464)	105
Hepatocyte growth factor receptor (MET, Homo sapiens, UniProt P08581)	88.1
Serine/threonine-protein kinase PAK 3 (PAK3, Homo sapiens, UniProt O75914)	105
Serine/threonine-protein kinase PLK3 (PLK3, Homo sapiens, UniProt Q9H4B4)	105
Mitogen-activated protein kinase 14 (MAPK14, Homo sapiens, UniProt Q16539)	36.5
RAC-beta serine/threonine-protein kinase (AKT2, Homo sapiens, UniProt P31751)	94.1
Discoidin domain-containing receptor 2 (DDR2, Homo sapiens, UniProt Q16832)	0.242
Calcium/calmodulin-dependent protein kinase type IV (CAMK4, Homo sapiens, UniProt Q16566)	91.3
G protein-coupled receptor kinase 4 (GRK4, Homo sapiens, UniProt P32298)	94.1
Mitogen-activated protein kinase 11 (MAPK11, Homo sapiens, UniProt Q15759)	76.6

Block 3
SMILES: O=C1CCc2cc(Nc3cc(OC4CCOCC4)c([N+](=O)[O-])cc3Cl)ccc2N1
Read-out: cell-free assay
Technique: competition with immobilised ligand
Concentration: 1 µM
target	remaining binding [%]
Casein kinase II subunit alpha' (CSNK2A2, Homo sapiens, UniProt P19784)	76
SRSF protein kinase 1 (SRPK1, Homo sapiens, UniProt Q96SB4)	73
Serine/threonine-protein kinase WNK3 (WNK3, Homo sapiens, UniProt Q9BYP7)	87
Hepatocyte growth factor receptor (MET, Homo sapiens, UniProt P08581, M1250T)	93
Cyclin-dependent kinase 17 (CDK17, Homo sapiens, UniProt Q00537)	91
Serine/threonine-protein kinase SBK1 (SBK1, Homo sapiens, UniProt Q52WX2)	97
Activin receptor type-1B (ACVR1B, Homo sapiens, UniProt P36896)	93
Glycogen synthase kinase-3 beta (GSK3B, Homo sapiens, UniProt P49841)	96
Ephrin type-A receptor 7 (EPHA7, Homo sapiens, UniProt Q15375)	75

Block 4
Target: Sox-I, HMG box (Salpingoeca helianthica)
Technique: Spec-seq
Molecule type: double-stranded DNA, one strand shown
Medium: in vitro
Concentration: not given
Notes: whole probe, mean of replicates
Reference: not given
Reading: lower = stronger binding
All sequences stand within: GAGTCGTCTCGTCAGCAC … CCGTAGAGCACTCAGGTC
Construct (chain): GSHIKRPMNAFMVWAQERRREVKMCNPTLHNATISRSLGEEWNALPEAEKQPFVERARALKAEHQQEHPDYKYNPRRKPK
Sequence	relative binding energy [ln ratio]
AGCTGTT	-0.877
CATTTGG	1.33
GCGGGTT	1.07
GTTAGTT	0.548
CATGTCC	1.11
AACAGTT	-1.2
TGACGTT	0.744
CATCGTC	0.918

Repeated from above (block 3):
target	remaining binding [%]
Hepatocyte growth factor receptor (MET, Homo sapiens, UniProt P08581, M1250T)	93
Cyclin-dependent kinase 17 (CDK17, Homo sapiens, UniProt Q00537)	91
Serine/threonine-protein kinase SBK1 (SBK1, Homo sapiens, UniProt Q52WX2)	97
